Experimental data of several laboratories.
Protocols differ between the studies behind these lines. Several values in a cell are separate wells, animals, samples, runs or records. ± gives the spread as reported. Converted amounts (≈) assume the structure as drawn.

| SMILES | assay | test system | conditions | scale | endpoint | result |
| --- | --- | --- | --- | --- | --- | --- |
| O=C(Nc1cnccc1-c1ccc([18F])nc1)c1ccnc(NC(=O)C2CC2)c1 | ex vivo gamma counting | FVB/NJ mice, both sexes, heart | intravenous, 120 min, mean, P-gp inhibitor pretreatment, together with: tariquidar 15 mg/kg iv |  | SUV | 0.238 |
| CC[C@H](C)[C@@H]1NC(=O)[C@H](Cc2ccc(O)cc2)NC(=O)CCCSC[C@@H](C(=O)N(CC(=O)N[C@@H](CC(C)C)C(=O)NCC(N)=O)Cc2ccc(F)cc2)NC(=O)[C@H](CC(N)=O)NC(=O)[C@H](CCC(N)=O)NC1=O |  | human | intranasal, 15 µg single dose |  | adverse drug reactions | 33% |
| C=CC(=O)Nc1cc(Nc2nccc(-c3c[nH]c4ccccc34)n2)c(OC)cc1N(C)CCN(C)C | storage stability | human dried blood spots | 5 h, on ice, low QC level |  | recovery | 94.5% |
| O=S(=O)(NCc1ccncc1)c1ccc(C2CCCCC2)cc1 |  | C57BL/6J mouse, male, plasma | intraperitoneal, 0.3 mg/kg |  | Cmax | 16 nM |
| CN1CCC[C@]1(C)/C=C/S(=O)(=O)NC(=O)Nc1c2c(cc3c1CCC3)CCC2 | refers to: glucose in urine, not related | human | oral, 50 mg twice daily, 14 days, multiple ascending dose |  | subjects with adverse event | 16.7% |
| OC1(C(F)(F)F)CCN(c2nc(Nc3ccnc(C(F)(F)F)c3)nc(-c3cccc(C(F)(F)F)n3)n2)C1 (stereo not shown) |  | monkey | oral, 3 mg/kg |  | AUC(0-inf) | 29900 ± 3160 ng·h/mL |
| CC(C)=CCC1=C([O-])C(=O)c2ccccc2C1=O.CC(C)=CCC1=C([O-])C(=O)c2ccccc2C1=O.O.[Cu+2].c1ccc(-c2ccccn2)nc1 | cyclic voltammetry | CH2Cl2, Bu4NPF6 | 0.1 mM | reference: Ag/AgCl sat. KOH | Epc1 cathodic peak potential | 0.85 V |
| CCCCN1C(=O)c2cccc3c(NCCCCCCCCCCN4CCOCC4)ccc(c23)C1=O |  | dioxane |  |  | emission maximum | 513 nm |
| Cc1noc(C)c1Cn1cc(N2C(=O)CN(Cc3cccc(OS(=O)(=O)O)c3)C2=O)cn1 |  | Sprague-Dawley rat, male | oral, 10 mg/kg of parent drug, 0.5 h |  | plasma concentration | 2600 ng/mL |
| O=C(O)CCCOc1ccc([18F])cc1-c1cc(-c2ccccc2C(F)(F)F)n(-c2ccccc2)n1 | OLINDA/EXM extrapolation from mouse | human adult, total body |  |  | absorbed radiation dose | 12.3 µGy/MBq |
| CC(C)[C@H](NC(=O)[C@H](Cc1c[nH]c2ccccc12)NC(=O)[C@H](CCCNC(=N)N)NC(=O)[C@H](CCCNC(=N)N)NC(=O)[C@@H](NC(=O)[C@@H](NC(=O)[C@H](CCCNC(=N)N)NC(=O)[C@@H](NC(=O)[C@@H](NC(=O)[C@H](CCCNC(=N)N)NC(=O)[C@H](CCCNC(=N)N)NC(=O)[C@@H](NC(=O)[C@H](Cc1c[nH]c2ccccc12)NC(=O)[C@H](CCCNC(=N)N)NC(=O)[C@H](CCCNC(=N)N)NC(=O)[C@@H](NC(=O)[C@H](CCCNC(=N)N)NC(=O)[C@H](CCCNC(=N)N)NC(=O)[C@@H](NC(=O)[C@H](Cc1c[nH]c2ccccc12)NC(=O)[C@H](CCCNC(=N)N)NC(=O)[C@@H](N)CCCNC(=N)N)C(C)C)C(C)C)C(C)C)C(C)C)C(C)C)C(C)C)C(C)C)C(=O)N[C@@H](CCCNC(=N)N)C(=O)N[C@@H](CCCNC(=N)N)C(=O)O | dipstick | CD1 mouse, urine | intravenous, 15 mg/kg, 16 h, [14C]-labelled compound |  | specific gravity | 1.01 g/mL |
| CCCCN1C(=O)c2cccc3c(NCCCCCN4CCOCC4)ccc(c23)C1=O |  | acetonitrile |  |  | emission maximum | 520 nm |
| CCCC[C@H](NC(=O)CNC(=O)CNC(=O)[C@H](CCCCNC(=O)[C@H](CC(=O)O)NC(=O)C(C)c1ccc(CC(C)C)cc1)NC(=O)CN1CCN(CC(=O)O)CCN(CC(=O)O)CCN(CC(=O)O)CC1)C(=O)N[C@H]1CC(=O)NCCCC[C@@H](C(N)=O)NC(=O)[C@H](Cc2c[nH]c3ccccc23)NC(=O)[C@H](CCCNC(=N)N)NC(=O)[C@@H](Cc2ccccc2)NC(=O)[C@H](Cc2c[nH]cn2)NC1=O (stereo partly shown) [lutetium-177 labelled] |  | C57 mice, tumour | 2 h | reference: liver | tumour-to-tissue ratio | 9.42 |
| CCCCN1C(=O)c2cccc3c(NCCCCN4CCOCC4)ccc(c23)C1=O |  | ethyl acetate |  |  | emission maximum | 509 nm |
| CN(O)C(=O)CCC(=O)NCCCN(CCCCN(CCCNC(=O)CCC(=O)N(C)O)C(=O)CCC(=O)N(C)O)C(=O)CCC(=O)N(C)O.[89Zr] |  | mouse, spleen | 1 h |  | tracer uptake | 0.24 %ID/g |
| O=C(Nc1cnccc1-c1ccc([18F])cc1)c1ccnc(NC(=O)C2CC2)c1 | ex vivo gamma counting | FVB/NJ mice, both sexes, blood | intravenous, 120 min, mean, P-gp inhibitor pretreatment, together with: tariquidar 15 mg/kg iv |  | SUV | 0.28 |
| CN[C@H]1CC[C@H]([C@@]2(C)Oc3c(Cl)cc(C(=O)NCc4c(C)cc(C)[nH]c4=O)c(C)c3O2)CC1 | radiochromatography | human, feces | oral, 200 mg | reference: dose | fecal excretion | 2.7% and 0.8% and 1.5% and 1.1% |
| CN[C@H](CC(C)C)C(=O)N[C@H]1C(=O)N[C@@H](CC(N)=O)C(=O)N[C@H]2C(=N)N[C@H]3C(=O)N[C@H](C(=O)N[C@H](C(=O)NCCC[N+](C)(C)C)c4cc(O)cc(O)c4-c4cc3ccc4O)[C@H](O)c3ccc(c(Cl)c3)Oc3cc2cc(c3O[C@@H]2O[C@H](CO)[C@@H](O)[C@H](O)[C@H]2O[C@H]2C[C@](C)(NCc3ccc(-c4ccc(Cl)cc4)cc3)[C@H](O)[C@H](C)O2)Oc2ccc(cc2Cl)[C@H]1O |  | mouse | intravenous, 10 mg/kg |  | volume of distribution | 0.14 L/kg |
| C=CC(=O)N1CCCC(n2c(=O)c3ncccc3n(Cc3ccc(Oc4ccccc4)cc3)c2=O)C1 (stereo not shown) |  | male BALB/c mouse, plasma | intraperitoneal, 200 mg/kg, 6 h |  | concentration | 150 ng/mL |
| COc1ccc(CNc2nc([C@H]3CC[C@H](C(=O)O)CC3)nc3sc4ccccc4c23)cc1Cl |  | NSG mice | dose not given, day 3 |  | body weight | 22.1 g and 19.1 g and 21.8 g and 21.6 g |

| SMILES | assay | test system | conditions | scale | endpoint | result |
| --- | --- | --- | --- | --- | --- | --- |
| O=C(c1cccc(N2Cc3cn(Cc4ccc(F)cc4)nc3C2)c1)N1CCCCC1 | metabolic stability | rat, liver microsomes |  |  | half-life | 13 min |
| O=c1c2ccccc2[se]n1CCCCCCn1[se]c2ccccc2c1=O | shake-flask, RP-HPLC | 10% HP-β-cyclodextrin solution | 24 h, 25 °C |  | solubility | 60 ± 3 µg/mL (≈ 125 µM) |
| CCCCN1C(=O)c2cccc3c(NCCCCCCCCN4CCOCC4)ccc(c23)C1=O |  | water | pH 6.0 |  | fluorescence quantum yield | 0.23 |
| CS(=O)(=O)c1cc(Cl)cc(-c2cc(Cl)c(Cl)cc2Cl)c1Cl |  | whole cow milk | 20 nM nominal |  | dose fraction in milk fat | 86.7% |
| COc1cccc(OC)c1-c1cc(C(=O)NC2(C(=O)O)C3CC4CC(C3)CC2C4)nn1-c1ccc(C(=O)N(C)CCCN(C)C(=O)[C@H](CCCCNC(=O)[C@H](CC(C)C)NC(=O)C2OC2C(=O)O)NC(=O)CN2CCN(CC(=O)[O-])CCN(CC(=O)[O-])CCN(CC(=O)[O-])CC2)cc1C(C)C.[177Lu+3] (mixture of isomers) |  | mouse HT-29 xenograft | 24 h, biodistribution | reference: tumour over pancreas | tumour-to-pancreas ratio | 22.3 |
| N#Cc1cccc(N2Cc3cn(Cc4ccc(F)cc4)nc3C2)c1 | metabolic stability | rat, liver microsomes |  |  | half-life | 1.4 min |
| C=C(NC(=O)c1csc(-c2nc3c(cc2O)-c2nc(cs2)C(=O)NC(C(C)O)C(=O)NC(=C(C)OC)c2nc(cs2)C(=O)NC2c4nc(cs4)C(=O)NC(COC(=O)c4c5c6c(cccc6n4O)COC(=O)C(OC4CC(C)(O)C(N(C)C)C(C)O4)C2OC5)c2nc-3cs2)n1)C(N)=O (stereo not shown) |  | Sprague-Dawley rats, both sexes, plasma | intravenous infusion, 6 mg/kg, day 7, multiple dosing |  | AUC(0-tau) | 1600 ± 237 ng·h/mL |
| Cc1nc(N)nc2c1C(=O)N[C@@H](c1ccc(F)cc1-c1cccc(O[11CH3])n1)C2 | ex vivo biodistribution | healthy mice, heart | 60 min post-injection, baseline, vehicle pre-treatment |  | SUV | 1.8 ± 0.3 |
| C=C[C@]1(C)C[C@@H](OC(=O)CSc2ccc(NC(=O)c3ccco3)cc2)[C@]2(C)[C@H](C)CC[C@]3(CCC(=O)[C@H]32)[C@@H](C)[C@@H]1O |  | Mycoplasma gallisepticum-infected chickens, plasma | intramuscular, 40 mg/kg, 2 h |  | plasma concentration | 2320 ng/mL and 1700 ng/mL and 3220 ng/mL and 1770 ng/mL and 1730 ng/mL and 2620 ng/mL and 3260 ng/mL and 2980 ng/mL |
| C/C(N)=N/C(=N\S(=O)(=O)c1ccc(C(F)(F)F)cc1)N1C[C@H](c2ccccc2)C(c2ccc(Cl)cc2)=N1 |  | beagle dog, plasma | oral, 18 mg/kg |  | Tmax | 240 min |
| CCCCN1C(=O)c2cccc3c(NCCN4CCOCC4)ccc(c23)C1=O |  | DMF |  |  | emission maximum | 531 nm |
| CC(C)(O)c1ncc([S@](N)(=O)=NC(=O)Nc2c3c(cc4c2CCC4)CCC3)s1 | refers to: immune system disorders | healthy human | oral, dose not given, all active doses pooled |  | subjects with TEAEs | 2% |
| CCCC[N+]1=c2cc3c4cc2[O][Mn-2]1(=[C]=O)(=[C]=O)(=[C]=O)[n+]1ccc(cc1)C(=O)Nc1ccccc1NC(=O)c1cc[n+](cc1)[Mn-2](=[C]=O)(=[C]=O)(=[C]=O)([O]3)[N+]=4CCCC |  | PBS with reduced myoglobin | pH 7.4, dark |  | stability time without CO release | ≥ 12 h |
| COCC1CN(C2CCN(c3cc(OC)c(Nc4ncc(Br)c(Nc5ccc6c(c5P(C)(C)=O)OCCO6)n4)cc3C)CC2)C1 |  | EGFR-mutant NSCLC patients | oral, 30 mg once daily |  | patients with adverse events | 100% |
| CN([O-])C(=O)CN1CCNCCN(CC(=O)N(C)[O-])CC1.[89Zr+4] |  | mouse, bone | intravenous, 1 h |  | tracer uptake | 0.76 %ID/g |
| COc1cccc(OC)c1-c1cc(C(=O)NC2(C(=O)O)C3CC4CC(C3)CC2C4)nn1-c1ccc(C(=O)N(C)CCOCCOCCN(C)C(=O)[C@H](CCCCNC(=O)[C@H](CC(C)C)NC(=O)C2OC2C(=O)O)NC(=O)CN2CCN(CC(=O)[O-])CCN(CC(=O)[O-])CCN(CC(=O)[O-])CC2)cc1C(C)C.[177Lu+3] (mixture of isomers) |  | mouse HT-29 xenograft | 4 h, biodistribution | reference: tumour over pancreas | tumour-to-pancreas ratio | 7.52 |
| Cc1nn(-c2nc3c(F)cc(F)cc3s2)c(O)c1C(c1ccc(C(F)(F)F)cc1)c1c(C)nn(-c2nc3c(F)cc(F)cc3s2)c1O |  | ICR mouse | intravenous, 5 mg/kg, 2.00 h |  | plasma concentration | 5730 ng/mL and 4510 ng/mL and 6710 ng/mL |
| Cc1cc(-c2ccc(C(=O)[C@@H]3CCCC[C@H]3C(=O)Nc3cnn4c3C(=O)NCC4)cc2)[nH]n1 |  | human, urine | oral, 200 mg, 0-192 h | reference: dose | cumulative radioactivity recovery | 6.33% and 5.62% and 4.97% and 4.93% and 6.8% and 6.72% |
| COc1cccc(OC)c1-c1cc(C(=O)NC2(C(=O)O)C3CC4CC(C3)CC2C4)nn1-c1ccc(C(=O)N(C)CCOCCN(C)C(=O)[C@H](CCCCNC(=O)[C@H](CC(C)C)NC(=O)C2OC2C(=O)O)NC(=O)CN2CCN(CC(=O)[O-])CCN(CC(=O)[O-])CCN(CC(=O)[O-])CC2)cc1C(C)C.[177Lu+3] (mixture of isomers) |  | mouse HT-29 xenograft | 24 h, biodistribution | reference: tumour over spleen | tumour-to-spleen ratio | 3.74 |
| CCC(CC)CNC(=N)NC(=N)NCCCCCCNC(=N)NC(=N)NCC(CC)CC | metabolic stability | monkey, liver microsomes | 2 µM |  | scaled CLint | 24.6 mL/min/kg |

For quick reference, copied from above:
| SMILES | assay | test system | conditions | scale | endpoint | result |
| --- | --- | --- | --- | --- | --- | --- |
| CS(=O)(=O)c1cc(Cl)cc(-c2cc(Cl)c(Cl)cc2Cl)c1Cl |  | whole cow milk | 20 nM nominal |  | dose fraction in milk fat | 86.7% |
| C/C(N)=N/C(=N\S(=O)(=O)c1ccc(C(F)(F)F)cc1)N1C[C@H](c2ccccc2)C(c2ccc(Cl)cc2)=N1 |  | beagle dog, plasma | oral, 18 mg/kg |  | Tmax | 240 min |
| CN[C@H]1CC[C@H]([C@@]2(C)Oc3c(Cl)cc(C(=O)NCc4c(C)cc(C)[nH]c4=O)c(C)c3O2)CC1 | radiochromatography | human, feces | oral, 200 mg | reference: dose | fecal excretion | 2.7% and 0.8% and 1.5% and 1.1% |
| C=CC(=O)Nc1cc(Nc2nccc(-c3c[nH]c4ccccc34)n2)c(OC)cc1N(C)CCN(C)C | storage stability | human dried blood spots | 5 h, on ice, low QC level |  | recovery | 94.5% |
